Results pooled from the literature.
Compare with care: the assays were run in different laboratories.
Cell line: MIA PaCa-2

SMILES | read-out | technique | item | time | IC50
O=C1c2cccc[c]2[Au-]([Cl])([Cl])[N+]1=P(c1ccccc1)(c1ccccc1)c1ccccc1 | cell growth or viability | MTT |  | 24 h | 81.8 µM
COC(=O)[C@H]1[C@H]2C[C@H]3O[C@@]4(CCN3C[C@H]2C[C@@H](OC(=O)c2cc(OC)c(OC)c(OC)c2)[C@@H]1OC)C(=O)Nc1cc(OC)c(-c2ccc(C)cc2)cc14 | cell growth or viability | crystal violet |  | 72 h | 4.18 µM
C=C1CC(O)CC(C)=CCC2C1CC2(C)O (stereo not shown) | cell growth or viability | CCK-8 |  | 72 h | > 50 µM
Nc1ccc(/C=C/C(=O)N2CCc3c(oc4c(-c5ccc(F)cc5)cc(-c5ccc(NC(=O)[C@@H]6CCCO6)nn5)cc34)C2)cn1 | cell growth or viability | CCK-8 |  | 72 h | ~3 µM
CCCCCCCCCCCCCCCCCC(=O)Nc1ccn(C2OC(CO)C(O)C2(F)F)c(=O)n1 (stereo not shown) | cell growth or viability | resazurin |  | 48 h | 27.6 µM
Cc1ccc(C(C)C)cc1.O=C(N=P(c1ccccc1)(c1ccccc1)c1ccccc1)c1ccccn1.[Cl-].[Cl-].[Ru+2] | cell growth or viability | MTT |  | 24 h | 2.9 µM
O=C(CN1CCC(c2noc3cc(F)ccc23)CC1)N1CCC(=C2c3ncccc3CCc3cc(Cl)cc(Br)c32)CC1 | cell growth or viability | SRB |  |  | 33 µM
C=C1CCC(O)C(C)=CCC2C1CC2(C)O (stereo not shown) | cell growth or viability | CCK-8 |  | 72 h | > 50 µM
COC(=O)[C@@H](Cc1cn(Cc2ccc(C#N)cc2)nn1)NC(=O)OCC1c2ccccc2-c2ccccc21 | cell growth or viability | MTS |  | 72 h | 7.2 µM
COc1cccc2c1C(=O)c1c(O)c3c(c(O)c1C2=O)CC(O)(C(CO)=NNC(=O)CCCCC(=O)NNC(=O)CCCc1ccc(I)cc1)CC3OC1CC(N)C(O)C(C)O1 (stereo not shown) | cell growth or viability | resazurin |  | 72 h | 0.898 µM
O=C1NC(c2ccc(N3CCOCC3)cc2)(c2ccsc2)CC(O)=C1Sc1ccccc1Cl (stereo not shown) | lactate production |  | lactate in supernatant | 6 h | > 2 µM
Cc1ccc(C(C)C)cc1.O=C(N=P12CN3CN(CN(C3)C1)C2)c1[c-]cccc1.[Cl-].[Ru+2] | cell growth or viability | MTT |  | 24 h | 54.5 µM
O=C(CNc1nnc(-c2ccccc2)s1)N1CCC(=C2c3ncccc3CCc3cc(Cl)cc(Br)c32)CC1 | cell growth or viability | SRB |  |  | > 120 µM
COC(=O)[C@H]1[C@H]2C[C@H]3O[C@@]4(CCN3C[C@H]2C[C@@H](OC(=O)c2cc(OC)c(OC)c(OC)c2)[C@@H]1OC)C(=O)Nc1cc(OC)c(-c2ccc(C(F)(F)F)cc2)cc14 | cell growth or viability | crystal violet |  | 72 h | 6.11 µM
O=C(N=P12CN3CN(CN(C3)C1)C2)c1cccc[c]1[Au]([Cl])[Cl] | cell growth or viability | MTT |  | 24 h | > 125 µM
COC(=O)[C@@H](Cc1cn(Cc2ccc(C)cc2)nn1)NC(=O)OCC1c2ccccc2-c2ccccc21 | cell growth or viability | MTS |  | 72 h | 7.09 µM
Cc1ccc(C(C)C)cc1.[Cl-].[Cl-].[Fe+2].[Ru+2].c1cc[cH-]c1.c1ccc(P(=NCc2ccccn2)(c2ccccc2)[c-]2cccc2)cc1 | cell growth or viability | MTT |  | 24 h | > 125 µM
CCCCCCCCCCCCCCOC(=O)Nc1ccn([C@@H]2O[C@H](CO)[C@@H](O)C2(F)F)c(=O)n1 | cell growth or viability | MTT |  | 48 h | 4.37 µM
O=C(CSc1nc(-c2ccccc2)n[nH]1)N1CCC(=C2c3ncccc3CCc3cc(Cl)cc(Br)c32)CC1 | cell growth or viability | SRB |  |  | 42 µM
COC(=O)[C@@H]1[C@@H](OC)[C@H](OC(=O)c2cc(OC)c(OC)c(OC)c2)C[C@@H]2CN3CC[C@]4(O[C@@H]3C(=O)[C@@H]21)C(=O)Nc1cc(OC)ccc14 | cell growth or viability | crystal violet |  | 72 h | 3.99 µM
Cn1c(SCC(=O)N2CCC(=C3c4ncccc4CCc4cc(Cl)cc(Br)c43)CC2)nnc1-c1ccccc1 | cell growth or viability | SRB |  |  | 60 µM
C=C1CCC(O)C(C)=CCC2C1CC2(C)C(=O)C=CC(C)(C)O (stereo not shown) | cell growth or viability | CCK-8 |  | 72 h | 11 µM

Excerpt of the above:
SMILES | read-out | technique | item | time | IC50
COC(=O)[C@@H](Cc1cn(Cc2ccc(C#N)cc2)nn1)NC(=O)OCC1c2ccccc2-c2ccccc21 | cell growth or viability | MTS |  | 72 h | 7.2 µM
COc1cccc2c1C(=O)c1c(O)c3c(c(O)c1C2=O)CC(O)(C(CO)=NNC(=O)CCCCC(=O)NNC(=O)CCCc1ccc(I)cc1)CC3OC1CC(N)C(O)C(C)O1 (stereo not shown) | cell growth or viability | resazurin |  | 72 h | 0.898 µM
O=C1NC(c2ccc(N3CCOCC3)cc2)(c2ccsc2)CC(O)=C1Sc1ccccc1Cl (stereo not shown) | lactate production |  | lactate in supernatant | 6 h | > 2 µM
